Measurements pooled from the literature.
Lines come from different studies, so protocols differ. Numbers after ± are the reported error.
RNA demethylase ALKBH5: RNA demethylase ALKBH5 (Homo sapiens, UniProt Q6P6C2)
Urease: Urease (Canavalia ensiformis, UniProt P07374)

C[C@@H]1C(=O)C=C2[C@H]1CN(C)C[C@@H]2C  IC50 (MAL12 (Saccharomyces cerevisiae S288c, UniProt P53341); enzyme activity, inhibitor): 143 µM
CNc1nc(SC)nc2ccccc12  IC50 (Cytochrome P450 2D6 (CYP2D6, Homo sapiens, UniProt P10635); inhibitor): > 50 µM
CC(=O)N[C@@H](CC(C)C)C(=O)N[C@@H](CCC(=O)O)C(=O)N[C@@H](CO)C(=O)N[C@@H](CC(=O)O)C(=O)CCl  IC50 (Caspase-4 (CASP4, Homo sapiens, UniProt P49662); enzyme activity, inhibitor, fluorescence): 59 µM
CC1C(=NNC(=O)c2ccncc2)C(C)C(c2ccc(Br)cc2)OC1c1ccc(Br)cc1 (centres unmarked)  IC50 (DNA gyrase (gyrA/gyrB, Escherichia coli, UniProt P0AES4+P0AES6)): 16.1 µM
NC(=O)c1cccc(CCN(CC[C@H](N)C(=O)O)C[C@H]2O[C@@H](n3cnc4c(N)ncnc43)[C@H](O)[C@@H]2O)c1  IC50 (RNA demethylase ALKBH5; RNA demethylase activity, inhibitor): > 50 µM
CCOC(=O)C/C(C)=N/NC(=O)c1nc2ccccc2n(C)c1=O  IC50 (PTGS2 (Ovis aries, UniProt P79208); enzyme activity, inhibitor, ELISA): 2.73 µM
CC(=O)CCC1C(=O)NC(C(C)C)C(=O)NC(Cc2cc(O)cc(F)c2)C(=O)N2CCCC(N2)C(=O)OC(C(C)=CC=CC(=O)N2CCCCO2)CC=CC=CC(O)C(C)C1O (centres unmarked)  IC50 (ABCC2 (Homo sapiens, UniProt Q92887); efflux transport, inhibitor; membrane vesicles; with: estradiol 17β-glucuronide 1 µM): > 50 µM
CC[C@H](C)[C@H](NC(=O)[C@H](C)N)C(=O)N[C@@H](CCCNC(=N)N)C(=O)N[C@@H](CCC(N)=O)C(=O)N[C@H](C(=O)N[C@@H](Cc1c[nH]cn1)C(=O)N[C@@H](CC(N)=O)C(=O)N[C@H](C(=O)N[C@@H](Cc1ccccc1)C(=O)N[C@@H](Cc1ccccc1)C(=O)N[C@@H](Cc1ccccc1)C(=O)N[C@@H](Cc1ccccc1)C(=O)N[C@@H](Cc1ccccc1)C(=O)N[C@@H](CCCCN)C(=O)N[C@@H](CCCNC(=N)N)C(=O)N[C@@H](CCCNC(=N)N)C(=O)O)[C@@H](C)CC)[C@@H](C)O  IC50 (histidine kinase ComD (Streptococcus pneumoniae serotype 2, UniProt A0A0H2ZM50); reporter gene, antagonist; Streptococcus pneumoniae, D39 comX::lacZ; 30 min, 37 °C, with: CSP1 50 nM): > 10 µM
CC[C@H](C)[C@H](N)C(=O)N[C@@H](CS)C(=O)N[C@@H](Cc1ccccc1)C(=O)N[C@@H](CC(C)C)C(=O)N[C@@H](Cc1c[nH]cn1)C(=O)N[C@@H](Cc1ccc(O)cc1)C(=O)N[C@@H](CC(=O)O)C(=O)N[C@@H](Cc1ccccc1)C(=O)N[C@@H](Cc1ccc(O)cc1)C(=O)O  IC50 (APOBEC3G (Homo sapiens, UniProt Q9HC16); deamination activity, inhibitor, PCR/StuI restriction; pH 7.4, 37 °C, with: ssDNA substrate 1 fmol/µL): > 100 µM
O=C(CCCCCCC(=O)Nc1cccc(N=Nc2ccccc2)c1)NO  IC50 (HDAC1 (Homo sapiens, UniProt Q13547); enzyme activity, inhibitor; cis isomer, irradiated): 0.035 ± 0.023 µM
CSCC[C@H](NC=O)C(=O)N[C@@H](CCC(=O)O)C(=O)N[C@@H](Cc1ccccc1)C(=O)N[C@H](C(=O)N[C@@H](C)C(=O)N[C@@H](CCCCN)C(=O)N[C@@H](CC(C)C)C(=O)N[C@@H](Cc1ccccc1)C(=O)N[C@@H](CCCCN)C(=O)N[C@@H](Cc1ccccc1)C(=O)N[C@@H](Cc1ccccc1)C(=O)N[C@@H](CCCCN)C(=O)N[C@@H](CC(=O)O)C(=O)N[C@@H](CC(C)C)C(=O)N[C@@H](CC(C)C)C(=O)NCC(=O)N[C@@H](CCCCN)C(=O)N[C@@H](Cc1ccccc1)C(=O)N[C@@H](CC(C)C)C(=O)NCC(=O)N[C@@H](CC(N)=O)C(=O)N[C@@H](CC(N)=O)C(=O)O)C(C)C  IC50 (FPR2 (Homo sapiens, UniProt P25090); ligand displacement, radioligand; cell membranes): 0.0501 µM
F[P-](F)(F)(F)(F)F.OCP(CO)CO.OCP(CO)CO.OCP(CO)CO.OCP(CO)CO.[Cu+]  IC50 (PSMB6/PSMB5/PSMB7 (Homo sapiens, UniProt P28072+P28074+Q99436); proteasome T-L activity, inhibitor; LoVo; 24 h): 42 µM
O=C1C(O)=C(Nc2ccccc2Cl)C(=O)c2ccccc21  IC50 (DHODH (Homo sapiens, UniProt Q02127); enzyme activity, inhibitor, absorbance): 0.68 µM
CC(C)[C@H](NC(=O)[C@@H]1CCCN1C(=O)[C@H](CCCCN)NC(=O)[C@@H]1CCCN1C(=O)[C@H](CO)NC(=O)[C@H](C)NC(=O)[C@@H](N)CCC(=O)O)C(=O)O  IC50 (ACE (Oryctolagus cuniculus, UniProt P12822); enzyme activity, inhibitor, absorbance; pH 8.3): 87.7 µM
CC[C@@H]1C(=O)N(C)c2cnc(Nc3ccc(C(=O)NCCCC[C@H](NC(=O)COCCOCCNC(=O)COCCOCCNC(=O)COCCOCCNC(=O)COCCOCCNC(=O)[C@@H](NC(=O)[C@H](CO)NC(=O)[C@H](Cc4cncn4CCCCCCCCc4ccccc4)NC(=O)[C@H](CC(C)C)NC(=O)[C@@H]4CCCN4C(C)=O)[C@@H](C)OP(=O)(O)O)C(N)=O)cc3OC)nc2N1C1CCCC1  IC50 (PLK3 (Homo sapiens, UniProt Q9H4B4); enzyme activity, inhibitor): 0.0072 µM
N=C(N)NCCC[C@@H]1NC(=O)[C@H](CCCCNC(=O)CCOCCOCCOCCOCCNC(=O)CC[C@H](NC(=O)CCOCCOCCOCCOCCNC(=O)CC[C@H](NC(=O)CN2CCN(CC(=O)O)CCN(CC(=O)O)CCN(CC(=O)O)CC2)C(=O)NCCOCCOCCOCCOCCC(=O)N[C@@H](CCC(=O)NCCOCCOCCOCCOCCC(=O)NCCCC[C@@H]2NC(=O)[C@@H](Cc3ccccc3)NC(=O)[C@H](CC(=O)O)NC(=O)CNC(=O)[C@H](CCCNC(=N)N)NC2=O)C(=O)NCCOCCOCCOCCOCCC(=O)NCCCC[C@@H]2NC(=O)[C@@H](Cc3ccccc3)NC(=O)[C@H](CC(=O)O)NC(=O)CNC(=O)[C@H](CCCNC(=N)N)NC2=O)C(=O)NCCOCCOCCOCCOCCC(=O)NCCCC[C@@H]2NC(=O)[C@@H](Cc3ccccc3)NC(=O)[C@H](CC(=O)O)NC(=O)CNC(=O)[C@H](CCCNC(=N)N)NC2=O)NC(=O)[C@@H](Cc2ccccc2)NC(=O)[C@H](CC(=O)O)NC(=O)CNC1=O  IC50 (Integrin alpha-V/beta-3 (Homo sapiens, UniProt P05106+P06756); ligand displacement, radioligand): 0.0003 µM
O=C(Nc1ccc(-c2ncn[nH]2)cc1Cc1ccccc1)c1cccc(CC2CCCCC2)n1  IC50 (Capsid scaffolding protein, protease domain (Human herpesvirus 8 type P, UniProt Q2HRB6); pH 8): no inhibition
CC(C)[C@H](NC(=O)c1ccc(CNc2nc3c(c(=O)[nH]2)CCC3)cc1)C(=O)NC1COC1  IC50 (MMP2 (Homo sapiens, UniProt P08253); enzyme activity, inhibitor): > 5 µM
CCCCCc1cc(O)c2c(c1)OC(C)(C)C1CCC(C(=O)OC3OC(C(=O)O)C(O)C(O)C3O)=CC21 (centres unmarked)  IC50 (Cytochrome P450 2B6 (CYP2B6, Homo sapiens, UniProt P20813); inhibitor; HEK cell microsomes; 30 min preincubation without NADPH): 5.1 ± 1.6 µM
Nc1nc2c(c(=O)[nH]1)[n+](Cc1cccc(OS(=O)(=O)F)c1)cn2[C@@H]1O[C@H](COP(=O)(O)O)[C@@H](O)[C@H]1O  IC50 (NT5C3B (Homo sapiens, UniProt Q969T7); enzyme activity, inhibitor, absorbance; pH 7.5): 1.6 µM
N#Cc1cn([C@@H]2O[C@H](CSCC[C@H](N)C(=O)O)[C@@H](O)[C@H]2O)c2ncnc(N)c12  IC50 (RNA demethylase ALKBH5; RNA demethylase activity, inhibitor): > 50 µM
CC1(C)OC2OC(C(CCO)NCCCNC(CCO)C3OC4OC(C)(C)OC4C3OCc3ccccc3)C(OCc3ccccc3)C2O1 (centres unmarked)  IC50 (DNA ligase 1 (Homo sapiens, UniProt P18858); enzyme activity, inhibitor, radiometric): 320 µM
CC[C@@H]1NC(=O)[C@@H]2CSSC[C@@H]3NC(=O)[C@H](CCCCN)NC(=O)[C@@H]4CSSC[C@H](NC(=O)[C@H](CC(=O)O)NC(=O)[C@H](CCCCN)NC(=O)[C@@H]5CCCN5C(=O)[C@H]([C@@H](C)O)NC(=O)[C@H](CCCNC(=N)N)NC(=O)[C@@H](NC(=O)[C@H](CO)NC(=O)[C@H](C)N)CSSC[C@H](NC(=O)[C@H](CCCCN)NC(=O)CNC(=O)[C@H](Cc5ccc(O)cc5)NC(=O)[C@@H]5CCCN5C(=O)[C@H](CSSC[C@@H](C(N)=O)NC(=O)[C@H](CCCNC(=N)N)NC(=O)[C@H](CC(N)=O)NC3=O)NC(=O)CNC(=O)[C@H]([C@@H](C)O)NC(=O)[C@H](CCC(=O)O)NC(=O)[C@H](CCCCN)NC1=O)C(=O)N[C@@H](CCSC)C(=O)N[C@@H](CC(N)=O)C(=O)N[C@@H](CCCNC(=N)N)C(=O)N[C@@H](CCCCN)C(=O)N4)C(=O)N[C@@H](C)C(=O)N[C@@H](CC(=O)O)C(=O)N1CCC[C@H]1C(=O)N2  IC50 (Kcna3 (Mus musculus, UniProt P16390); ion current, inhibitor, patch clamp): ~5e-05 µM
CC(C)[C@@H]1NC(=O)[C@H](CCC(N)=O)NC(=O)[C@@H]2CCCN2C(=O)[C@H](Cc2c[nH]cn2)NC(=O)CNC(=O)[C@@H](N)CSSC[C@@H](C(=O)NCC(N)=O)NC(=O)[C@@H]2CCCN2C1=O  IC50 (Streptavidin (Streptomyces avidinii, UniProt P22629)): 24 µM
O=C1c2ccc(O)c(O)c2C(=O)N1Cc1cccc(Cl)c1F  IC50 (Gag-Pol polyprotein, integrase (gag-pol, Human immunodeficiency virus 1, UniProt P12497); 3'-processing, inhibitor, gel-based; recombinant wild-type integrase): 29 ± 4.3 µM
O=C1C=CC(=O)C(c2cc(Cl)ccc2Cl)=C1  IC50 (DUSP1 (Homo sapiens, UniProt P28562); enzyme activity, inhibitor): > 1 µg/mL
CSc1ccc2c(c1)c(CCN)c(C)n2Cc1ccc(Cl)cc1  IC50 (Phosphatidylinositol 3,4,5-trisphosphate 5-phosphatase 1, Ptase-C2 domains (INPP5D, Homo sapiens, UniProt Q92835); enzyme activity, inhibitor): 167 µM
Cc1cc(C)nc(Sc2nc3sccn3c2[N+](=O)[O-])n1  IC50 (Procathepsin L (CTSL, Homo sapiens, UniProt P07711); enzyme activity, inhibitor, FRET): 55.4 µM
C/C=C1/CN2CCc3c([nH]c4ccccc34)[C@@H]2C[C@@H]1/C(=C\OC)C(=O)OC  IC50 (HTR5A (Homo sapiens, UniProt P47898); ligand displacement, radioligand; cell membranes): 6.84 µM
NCP(=O)(O)O  IC50 (Urease; enzyme activity, inhibitor, absorbance; pH 7): 432 µM
CSCC[C@H](NC(=O)[C@H](CC(C)C)NC(=O)[C@H](Cc1cnc[nH]1)NC(=O)CNC(=O)[C@@H](NC(=O)[C@H](C)NC(=O)[C@H](Cc1c[nH]c2ccccc12)NC(=O)[C@H](CCC(N)=O)NC(=O)[C@H](N)Cc1ccccc1)C(C)C)C(N)=O  IC50 (NMBR (Homo sapiens, UniProt P28336); NMBR activity, cell-based): 0.00021 to 0.0021 µM
CN(CC(N)=O)C(=O)c1cc(Cl)sc1Cl  IC50 (Urease; enzyme activity, inhibitor, absorbance): 0.68 µM
NC(=O)CCCCC=C1C(=O)OC1CCc1ccccc1 (centres unmarked)  IC50 (Phosphatidylserine lipase ABHD16A (Homo sapiens, UniProt O95870); enzyme activity, inhibitor): > 10 µM
CCCC[C@H](NC(=O)[C@H](C)NC(=O)[C@H](CCC(=O)O)NC(=O)[C@H](Cc1ccccc1)NC[C@H](CC(C)C)NC(=O)[C@H](Cc1ccccc1)NC(=O)[C@@H](N)CCCNC(=N)N)C(=O)O  IC50 (Gag-Pol polyprotein, protease (gag-pol, Human immunodeficiency virus 1, UniProt P12497); enzyme activity, inhibitor, FRET; NL4-3 wild type): > 1 µM
O=C(O)c1ccccc1-c1c2ccc(=O)c([As]3SCCS3)c-2oc2c([As]3SCCS3)c(O)ccc12  IC50 (PTPN11 (Homo sapiens, UniProt Q06124); enzyme activity, inhibitor, fluorescence; pH 7): 0.295 µM
CC(=O)N[C@@H](C)C(=O)N[C@@H](C)C(=O)N1CCC[C@H]1C(=O)N1CCC[C@H]1C(=O)N[C@@H](CCCCN)C(=O)N[C@@H](CCCCN)C(=O)N1CCC[C@H]1C(=O)N1CCC[C@H]1C(=O)N[C@@H](CCCNC(=N)N)C(=O)N1CCC[C@H]1C(=O)NCC(=O)N[C@@H](C)C(=O)N1CCC[C@H]1C(=O)NCC(N)=O  IC50 (Enhancer of filamentation 1 (NEDD9, Homo sapiens, UniProt Q14511); binding, inhibitor, fluorescence polarization competition; with: FITC-labeled peptide): ~1 µM
COc1c(OCCOCCOCCOCCOCCOCCOCCOc2cccc(C(=O)C3CCN(CCc4ccc(F)cc4)CC3)c2OC)cccc1C(=O)C1CCN(CCc2ccc(F)cc2)CC1  IC50 (HTR2A (Homo sapiens, UniProt P28223); phosphorylation in cells, antagonist): 0.284 µM
CN1CCc2cc(O)cc3c2[C@H]1Cc1ccc(O)c(O)c1-3  IC50 (Carbamate kinase (Giardia intestinalis, UniProt A8BB85); enzyme activity, ATP luminescence): 5.17 µM
